Results pooled from the literature.
Every numbered part comes from another study and shows a few of its results, in no order. Substitutions count along the parent as printed.

Sample 1
Target: ABI1, truncated, D143A, DHFR fusion (Arabidopsis thaliana)
Technique: DHFR PCA, deep sequencing
Sample: yeast
Notes: methotrexate growth selection, single substitutions
Added: (+)-ABA 17 µM
Relative to: wild-type fitted maximum
Reading: higher = stronger binding
Starting sequence: PYL1, truncated, DHFR fusion (Arabidopsis thaliana); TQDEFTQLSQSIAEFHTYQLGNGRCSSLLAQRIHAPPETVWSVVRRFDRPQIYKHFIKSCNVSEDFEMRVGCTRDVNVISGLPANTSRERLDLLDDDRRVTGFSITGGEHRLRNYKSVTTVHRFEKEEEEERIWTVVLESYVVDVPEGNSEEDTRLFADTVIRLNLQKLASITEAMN
Change | relative binding score [%]
R113W | 47.4
S27T | 28.4
L91E | 11.6
V142S | 78.8
A30S | 88.5
F157R | 3.7
Q2H | 81.5
Y53C | -7.84

Sample 2
Target: Sal-like protein 4, full length isoform B (SALL4, Homo sapiens, UniProt Q9UJQ4-2, residues 1-616)
Technique: universal PBM
Molecule type: double-stranded DNA, one strand shown
Sample: in vitro
Concentration: not given
Notes: 8-mer, flanks averaged, mean of replicates
Reading: higher = stronger binding
Construct (chain): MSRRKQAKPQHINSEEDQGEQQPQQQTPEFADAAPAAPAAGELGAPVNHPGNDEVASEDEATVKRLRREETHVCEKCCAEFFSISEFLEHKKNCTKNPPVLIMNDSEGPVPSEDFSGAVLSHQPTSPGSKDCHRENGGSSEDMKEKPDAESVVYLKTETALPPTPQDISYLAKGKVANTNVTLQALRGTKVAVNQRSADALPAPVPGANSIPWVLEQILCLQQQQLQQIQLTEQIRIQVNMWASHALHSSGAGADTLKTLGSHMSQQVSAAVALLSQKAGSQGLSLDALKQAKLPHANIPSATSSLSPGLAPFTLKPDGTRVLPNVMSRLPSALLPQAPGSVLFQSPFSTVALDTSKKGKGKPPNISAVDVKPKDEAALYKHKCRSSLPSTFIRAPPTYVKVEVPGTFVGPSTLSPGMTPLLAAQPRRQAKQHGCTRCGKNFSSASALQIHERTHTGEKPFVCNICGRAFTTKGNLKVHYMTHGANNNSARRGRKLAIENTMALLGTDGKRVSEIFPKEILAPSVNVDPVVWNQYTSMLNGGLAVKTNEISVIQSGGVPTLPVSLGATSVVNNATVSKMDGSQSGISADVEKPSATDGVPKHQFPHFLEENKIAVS
Strand | E-score
AAAAGAGA | 0.132
ACCCAATG | -0.0393
ATGTACTC | 0.0867
GGTTCTCA | -0.0449
CAAATGCA | 0.128
CGTAGCTC | -0.0707
AGTACGCG | -0.00262
CAGGAGGG | -0.137
CTCCTAGA | -0.0772
AAACACGT | 0.0686
ACCTCGGC | -0.338
CACTTTTA | 0.177
ACTTTAGA | 0.143
CAGAATTC | 0.185
AGCCTTCG | -0.18

Sample 3
Target: Fragile X messenger ribonucleoprotein 1, C-terminal low-complexity region (Fmr1, Mus musculus, UniProt P35922)
Technique: RNA Bind-n-Seq
Molecule type: RNA
Sample: in vitro
Concentration: 200 nM
Notes: whole 134-nt RNA, ends assumed
Added: 150 mM KCl
Relative to: input library
Reading: higher = stronger binding
Strand | log2 enrichment
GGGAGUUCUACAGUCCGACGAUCGUCCUGUGCUACACAUCGUAUGUACCGAAUCGGGAAAAAAGGAAAAAAGGAAAAAAGGGAAAGUAUUAUGUUACGCCGUUCGGAUCUGCAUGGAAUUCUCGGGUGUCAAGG | -0.48
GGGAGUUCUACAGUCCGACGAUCUGCUCUUCACCAAGGAGGACGAGCCUGGCCGCUGCGACGUCCUGAGGAACCCCCUCUACCUCCAGAGUGUGAAGCUGCAGGAAGGUAAGCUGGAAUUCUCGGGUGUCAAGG | -0.00557
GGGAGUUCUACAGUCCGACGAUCGUCCUGUGCUACACAUCGUAUGUACCGAAUCGGGGAAAAAGGGAAAAAGGGGAAAAAGGAAAGUAUUAUGUUACGCCGUUCGGAUCUGCAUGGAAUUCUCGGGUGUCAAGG | -0.22
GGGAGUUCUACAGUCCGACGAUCUCAAGUCCUGUGCUACACAUCGUAUGUACCGAAUCGGGAAAGGAAAGGGAAAGGAAAGUAUUAUGUUACGCCGUUCGGAUCUGCACUUCCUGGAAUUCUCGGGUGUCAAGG | -0.437
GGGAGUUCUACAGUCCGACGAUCUGUGCUACACAUCGUAUGUACCGAAUCGGGGUUUUUUUGGUUUUUUUGGGGUUUUUUUGGGGAAAGUAUUAUGUUACGCCGUUCGGAUCUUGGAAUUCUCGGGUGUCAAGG | 0.0238
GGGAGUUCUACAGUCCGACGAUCCCUGUGCUACACAUCGUAUGUACCGAAUCGGGGAAAAAAGGGGAAAAAAGGGGAAAAAAGGAAAGUAUUAUGUUACGCCGUUCGGAUCUGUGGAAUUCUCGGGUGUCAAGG | -0.577
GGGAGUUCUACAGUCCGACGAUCUCCUGUGCUACACAUCGUAUGUACCGAAUCGGGUUUUUUGGGUUUUUUGGUUUUUUGGGAAAGUAUUAUGUUACGCCGUUCGGAUCUGCAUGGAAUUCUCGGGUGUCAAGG | -0.109
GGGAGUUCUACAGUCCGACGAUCACCAUGCAGGUGGGCAUCAAAGGGAAGUGGGGCAAGGGGGGGAUAGGGAGGGGGGUAACACUUUGGGAACAGGUGGUCCCAGGUCGUUUCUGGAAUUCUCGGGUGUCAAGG | 0.639
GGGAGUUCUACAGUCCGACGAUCGUCCUGUGCUACACAUCGUAUGUACCGAAUCAAAUUUUUUUAAACCCCCAAACCCAAAAAAGUAUUAUGUUACGCCGUUCGGAUCUGCACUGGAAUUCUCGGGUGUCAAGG | -0.18
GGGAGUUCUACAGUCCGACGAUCUCCUGUGCUACACAUCGUAUGUACCGAAUCGGGGUUUUUGGGGUUUUUUUGGGGAGGGGAAAGUAUUAUGUUACGCCGUUCGGAUCUGCAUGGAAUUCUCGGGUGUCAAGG | 0.74
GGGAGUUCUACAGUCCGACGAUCUGGGAGGUGGAUUUUGUUUAUUUUUUUAGCUCAUUUCCAGGGGUGGGAAUUUUUUGUUAAUAUGUGUCAUGAAUAAAGUUGUUUUUGAAAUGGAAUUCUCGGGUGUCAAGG | 0.284
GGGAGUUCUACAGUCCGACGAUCUGUGAGACUGAAGAUUAUGGAGAAAAGUUUGAUGAAAAUGAUGUGAUUACAUGUUUUGCUGUAAGUUAAAGCUAACUUUCUAUGUAUAAAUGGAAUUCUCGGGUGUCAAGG | -1.83
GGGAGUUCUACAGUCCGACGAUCUCAAGUCCUGUGCUACACAUCGUAUGUACCGAAUCGGGGAAGGGAAGGGGAAGGAAAGUAUUAUGUUACGCCGUUCGGAUCUGCACUUCCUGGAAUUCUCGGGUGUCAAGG | 0.067
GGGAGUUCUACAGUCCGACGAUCUCAAGUCCUGUGCUACACAUCGUAUGUACCGAAUCGUGUGUGUGUGUGUGUGUGAAAGUAUUAUGUUACGCCGUUCGGAUCUGCACUUCCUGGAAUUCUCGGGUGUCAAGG | 0.182

Other studies, line by line
Molecule | target | test | test system | conditions | how to read | quantity | result
PhoQ, residues 284 288 289 292 302 303 AAQSYM | PhoP, residues 12 14 15 18 19 STHWV (Escherichia coli, UniProt P23836) | Sort-seq, item: YFP reporter | E. coli | PhoQ-PhoP variant library, added: 10 µM Mg2+ | relative to: high Mg2+ state, higher = stronger signaling | fold induction | 7.76

Some of these lines once more (sample 2):
Strand | E-score
CGTAGCTC | -0.0707
AGTACGCG | -0.00262
